# Results gathered from unrelated publications.
# Each numbered part is a random draw from the data of one study; scales do not carry over between parts. Positions count from the first letter of the parent shown.

# Study 1
# Target: CCNB3, cyclin fold, Cln2 fusion (human)
# Method: yeast growth competition, sequencing
# Medium: yeast
# Notes: weak parent motif
# Relative to: not given
# Reading: higher = stronger binding
# Starting sequence: RP1L1 docking peptide (human); TLGLGPLSFTLED
Change,normalised enrichment score
TLGLGPLAFTLED [S8A],-0.109
TLGLGPLSFTLEA [D13A],0.0782
TLGLGPLSFTLAD [E12A],-0.0576
TLGLGPLSATLED [F9A],-0.0626
TAGLGPLSFTLED [L2A],-0.259
TLGLGPASFTLED [L7A],-0.17

# Study 2
# Target: RING finger protein unkempt homolog, zinc fingers 1-6, GST-SBP tag (UNK, Homo sapiens, UniProt Q9C0B0, residues 30-357)
# Method: RNA Bind-n-Seq
# Molecule type: RNA
# Medium: in vitro
# Tested at: not given
# Notes: RNA with constant flanks, human and mouse sites, ends assumed
# Relative to: input RNA pool
# Reading: higher = stronger binding
# Construct (chain): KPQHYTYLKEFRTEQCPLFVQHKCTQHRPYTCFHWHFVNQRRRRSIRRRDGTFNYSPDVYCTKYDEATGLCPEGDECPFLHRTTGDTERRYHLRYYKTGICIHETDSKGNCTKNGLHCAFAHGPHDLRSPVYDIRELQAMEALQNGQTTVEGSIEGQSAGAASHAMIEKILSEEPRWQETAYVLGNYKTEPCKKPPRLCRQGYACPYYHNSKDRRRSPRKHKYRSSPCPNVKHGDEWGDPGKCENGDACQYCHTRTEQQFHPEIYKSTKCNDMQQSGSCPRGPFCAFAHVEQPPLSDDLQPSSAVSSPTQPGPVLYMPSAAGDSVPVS
Sequence,bound/input enrichment [ratio]
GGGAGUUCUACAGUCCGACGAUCACAUGAGAGAACCCACACUGGAGAGAAACCCUAUGAAUGUAUUGACUGUGGGAAAGCCUUUAGUCAAAGUUCAUCUCUCAUUCAGCAUGAGAGAACUCAUACUGGAGAGAAGCCCUAUGACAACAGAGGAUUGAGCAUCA,0.194
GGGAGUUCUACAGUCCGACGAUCGCCUGGUCCAGCAUCGUCUAUCAGCUGAUCCCCAACGUUCAGCAGCUGGAGAUGAACCUAAGGAAUUUUGCCCAGAUUAUUGAGGCUGAUGAAGUUCUGCUGUUCGAGAGAGCUACGUUCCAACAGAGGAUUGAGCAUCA,0.148
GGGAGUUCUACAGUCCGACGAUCCAUCUACUUGGUUCUUGGGUUGGGUCAUAGAUGCUGCCUGGGCUCUACAGUGGGAGUCUGCAACUCUGUGCAAGGAUCUCAUUCUGAGCACUUUAUGUAUGGCCUGCAGGGAAGGAACACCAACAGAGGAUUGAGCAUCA,0.146
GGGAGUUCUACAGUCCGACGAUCGCCGAUGAAGUGCAGAGGUUUUUUUCUGACUGCAAAAUUCAAAAUGGGGCUCAAGGUAUUCGUUUCAUCUACACCAGAGAAGGCAGACCAAGUGGCGAGGCUUUUGUUGAACUUGAAUCACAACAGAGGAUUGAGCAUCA,0.0899
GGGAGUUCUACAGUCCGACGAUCGAAUUGUCCCAUUUGCUGUCUUUAGAGGCCACGGCUUCAUUUCUAUGCGUAAAAAGCUCAUUUAGCAAUGUAGUUAUUUCAGUAUUUAUUUCUAUUAUGGAAUCCCUGGGGUUCGGAAUGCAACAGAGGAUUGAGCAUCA,4.89

# Study 3
# Target: ABI1, truncated, D143A, DHFR fusion (Arabidopsis thaliana)
# Method: DHFR PCA, deep sequencing
# Medium: yeast
# Notes: methotrexate growth selection, single substitutions
# Added: (+)-ABA 58 µM
# Relative to: wild-type fitted maximum
# Reading: higher = stronger binding
# Starting sequence: PYL1, truncated, DHFR fusion (Arabidopsis thaliana); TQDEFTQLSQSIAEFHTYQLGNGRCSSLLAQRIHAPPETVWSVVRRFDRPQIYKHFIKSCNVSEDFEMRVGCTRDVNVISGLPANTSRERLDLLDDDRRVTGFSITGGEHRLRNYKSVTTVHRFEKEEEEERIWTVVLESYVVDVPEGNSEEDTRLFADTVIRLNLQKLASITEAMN
Change,relative binding score
G71I,6.53%
S59W,56.7%
H16R,8.38%
D144T,60.4%
F5H,84.7%
S63Y,63%
D65R,81.2%
R132S,103%
T106V,106%
G71P,33.9%
F157N,3.67%
D3F,83.7%
R132A,104%
I162L,52.4%

# Study 4
# Target: Centromere-binding protein 1, full length, His-tagged (CBF1, Saccharomyces cerevisiae, UniProt P17106, residues 1-351)
# Chain of UniProt P17106 (whole entry, looked up): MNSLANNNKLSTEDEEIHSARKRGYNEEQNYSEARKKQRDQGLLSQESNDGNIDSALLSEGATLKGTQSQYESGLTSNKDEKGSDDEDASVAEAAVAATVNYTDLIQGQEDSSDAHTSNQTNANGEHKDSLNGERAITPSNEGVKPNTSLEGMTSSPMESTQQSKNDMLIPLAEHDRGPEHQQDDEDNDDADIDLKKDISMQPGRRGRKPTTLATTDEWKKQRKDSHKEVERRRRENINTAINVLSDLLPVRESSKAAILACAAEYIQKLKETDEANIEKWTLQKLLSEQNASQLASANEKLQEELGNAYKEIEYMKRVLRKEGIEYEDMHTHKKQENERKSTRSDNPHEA
# Method: competition protein-binding microarray
# Molecule type: double-stranded DNA, one strand shown
# Medium: in vitro
# Tested at: 2 µM
# Notes: whole 60-bp probe, lowest competitor level
# Added: Pho4 competitor, 0.05 µM
# Reading: higher = stronger binding
Sequence,fluorescence intensity [a.u.]
CGGGGTTAAGTTTGTCACAAAACTTGCTTGCAGCAGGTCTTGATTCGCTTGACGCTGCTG,79
TATTATTGATCGAGTCACGTTCTTCCAACGTTTCCGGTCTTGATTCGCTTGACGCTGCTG,888
TGCGCAACAACTTGCAGCGTGGGTGTATGTCTAGAAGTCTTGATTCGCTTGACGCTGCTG,62.7
GAATTTGACCAAAACCACGTGGTTTGGCTGCAAGTTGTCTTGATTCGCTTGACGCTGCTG,2400
CTTCTGTAAATTTGAAGGGTGGGTGGACGCGCCCCGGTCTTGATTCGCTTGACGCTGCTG,83.1
CTAACGAAGGTTTGAAGAGTGGGTGACAAGCCAAGTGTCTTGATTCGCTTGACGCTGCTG,67.7
AATTTGGCGCCGAGTCACGATATACTTGTACAGTGAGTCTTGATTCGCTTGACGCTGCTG,161
CGGGGTTAAGTTTGCTAAGTGGGTGGCTTGCAGCAGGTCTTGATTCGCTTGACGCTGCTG,89.8

# Study 5
# Target: Histone acetyltransferase KAT6A, both winged helices, GST fusion (KAT6A, Homo sapiens, UniProt Q92794, residues 1-181)
# Method: protein binding microarray
# Molecule type: double-stranded DNA, one strand shown
# Medium: in vitro
# Tested at: not given
# Notes: 8-mer, flanks averaged, mean of 2 arrays, mostly near background
# Relative to: not given
# Reading: higher = stronger binding
# Residues (chain): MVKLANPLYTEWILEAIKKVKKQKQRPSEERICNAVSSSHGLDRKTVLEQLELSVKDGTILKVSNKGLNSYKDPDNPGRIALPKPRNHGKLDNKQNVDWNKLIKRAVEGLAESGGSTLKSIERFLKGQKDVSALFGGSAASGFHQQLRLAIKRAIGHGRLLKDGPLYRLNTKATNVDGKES
Sequence,E-score
CCCTCGAG,-0.179
GGATCCGA,0.0653
ACGAGCTG,-0.217
CCCTGGCC,-0.0808
GTAACATA,-0.0112
GACTTGGA,-0.151
GTAAGTCA,-0.0587
CCCGAACC,-0.0416
CTAGGATC,-0.086
TATCTAAA,0.03
GCACGTAA,0.0588
ATGGTTCA,0.0657
AGTCCTTG,-0.145
CGCAACCA,0.08

# Study 6
# Target: Ras GTPase-activating protein-binding protein 1, full length (G3BP1, Homo sapiens, UniProt Q13283)
# Chain of UniProt Q13283 (whole entry, looked up): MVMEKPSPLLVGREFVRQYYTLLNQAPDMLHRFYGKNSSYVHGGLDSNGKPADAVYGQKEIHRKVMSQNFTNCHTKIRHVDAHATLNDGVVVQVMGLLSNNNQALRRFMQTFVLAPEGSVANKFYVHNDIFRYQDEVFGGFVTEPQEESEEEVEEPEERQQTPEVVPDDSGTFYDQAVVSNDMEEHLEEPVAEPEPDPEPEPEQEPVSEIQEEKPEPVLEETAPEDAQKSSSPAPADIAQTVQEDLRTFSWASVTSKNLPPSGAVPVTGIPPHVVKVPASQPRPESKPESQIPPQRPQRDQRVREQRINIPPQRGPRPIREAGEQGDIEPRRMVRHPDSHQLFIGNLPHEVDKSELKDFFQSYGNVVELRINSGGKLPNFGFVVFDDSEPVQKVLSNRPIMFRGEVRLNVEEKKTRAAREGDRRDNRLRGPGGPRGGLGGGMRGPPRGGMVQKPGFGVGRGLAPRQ
# Method: RNA Bind-n-Seq
# Molecule type: RNA
# Medium: in vitro
# Tested at: 200 nM
# Notes: whole 134-nt RNA, ends assumed
# Added: 150 mM KCl
# Relative to: input library
# Reading: higher = stronger binding
Sequence,log2 enrichment
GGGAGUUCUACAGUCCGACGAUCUGGACUUGCGGGUUCCCAUCUGGGACCAGGACAUACAGUUUCUCCCAGGAUCACAGAAGCUUGUCACCUGCACAGGGUACCACCAGGUAAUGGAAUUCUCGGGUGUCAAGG,0.0449
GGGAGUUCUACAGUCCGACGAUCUCCCUGAGACGGCGGGCAACAGCAUCGGCAGGAACGCCAUGGCCGUCCCCUCCCAGCUCUUACCUUACCAUCGACCUCACAGACGACACAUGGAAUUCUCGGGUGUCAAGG,0.953
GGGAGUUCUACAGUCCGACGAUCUCAAGUCCUGUGCUACACAUCGUAUGUACCGAAUCGGAAAGGGAAAGGGAAAGGAAAGUAUUAUGUUACGCCGUUCGGAUCUGCACUUCCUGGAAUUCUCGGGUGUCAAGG,-0.852
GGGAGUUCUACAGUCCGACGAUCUGCACACCGCCUUGCACAUAGCAGAGGCUCCGGGCUCACUCCUUCCUGGUGGGAAAGGAAGAUGCCUGUCCUCUCCGUGGAAGACCCUGGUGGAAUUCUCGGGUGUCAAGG,-1.45
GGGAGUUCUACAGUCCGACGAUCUGGGAAGUGGAUUUUGUUUAUUUUUUUAGCUCAUUUCCAGGGGUGGGAAUUUUUUUUUAAUAUGUGUCAUGAAUAAAGUUGUUUUUGAAAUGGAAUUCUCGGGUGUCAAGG,-0.237
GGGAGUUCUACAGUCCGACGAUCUAACUUUAGAGGAGGAUCUGAUGGAUAUGGCAGUGGACGUGGAUUUGGGGAUGGCUAUAAUGGGUAUGGAGGAGGACCUUGAGGUGGCAAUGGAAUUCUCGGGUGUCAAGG,0.157

# Study 7
# Target: PABPC1L2, full length, GST fusion (mouse, UniProt A0ABA7IW68)
# Method: RNAcompete
# Molecule type: RNA
# Medium: in vitro
# Tested at: 20 nM
# Notes: 7-mer, probes averaged, single round
# Relative to: mean of 7-mers
# Reading: higher = stronger binding
# Target sequence (chain): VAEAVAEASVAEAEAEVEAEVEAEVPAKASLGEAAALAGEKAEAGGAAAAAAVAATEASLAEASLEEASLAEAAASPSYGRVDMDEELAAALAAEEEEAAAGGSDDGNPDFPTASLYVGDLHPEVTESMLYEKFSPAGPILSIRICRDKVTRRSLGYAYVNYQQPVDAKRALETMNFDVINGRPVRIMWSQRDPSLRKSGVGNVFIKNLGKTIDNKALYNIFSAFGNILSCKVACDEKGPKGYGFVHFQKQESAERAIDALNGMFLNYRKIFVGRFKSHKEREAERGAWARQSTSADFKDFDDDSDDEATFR
Sequence,7-mer Z-score
AUAUCAG,-0.0409
UGUGGGG,0.269
CUUCAAU,-0.277
AACAAAG,1.75
CAAGUCC,-0.231
UCCGCUG,-0.373
UAUAGCU,-0.117
UGGUCGG,-0.155
UGGAGUC,-0.186
CUGAGGU,-0.15

# A few entries again (study 5):
Sequence,E-score
GCACGTAA,0.0588
GACTTGGA,-0.151
TATCTAAA,0.03
CCCTCGAG,-0.179
CTAGGATC,-0.086
CCCGAACC,-0.0416
